# Measured values collected from several papers.
# Protocols differ between the studies behind these lines. Several values in a cell are separate wells, animals, samples, runs or records. ± marks the error that the study gave.
Compound,test,system,conditions,how to read,measurement,value
C=Cc1ccc([B-]23OC(=O)C(c4ccccc4)=N[N+]2=Cc2ccc(N(CC)CC)cc2O3)cc1 (stereo not drawn),UV/vis decay,aqueous buffer,,,hydrolysis activation energy,23.1 kcal/mol
C/C(N)=N/C(=N\S(=O)(=O)c1ccc(C(F)(F)F)cc1)N1C[C@H](c2ccccc2)C(c2ccc(Cl)cc2)=N1,,"male C57BL/6 mouse, plasma","oral, 10 mg/kg",,Tmax,1.5 h
O=C(Nc1cnccc1-c1ccc([18F])nc1)c1ccnc(NC(=O)C2CC2)c1,,"mice, transgenic, GSK-3β, early-stage, large intestine","intravenous, dose not given, 120 min",,SUV,0.83
O=C([O-])CN1CCN(CC(=O)[O-])CCN(CC(CCCc2ccccc2[N+](=O)[O-])N(CC(=O)[O-])CC(=O)[O-])CC1.[90Y+3] (stereo not drawn),TLC,human serum,"23 h, pH 7, 37 °C",,intact radiolabelled complex,99.9 ± 0.1%
C[N+](C)(CCOCCOCCOCCNC(=S)Nc1ccc(C[C@H]2CN(CC(=O)[O-])CCN(CC(=O)[O-])CCN2CC(=O)[O-])cc1)C[c-]1cccc1.[64Cu+2].[Fe+2].c1cc[cH-]c1,,"human adult male, heart wall",extrapolated from mouse biodistribution,,absorbed dose,2.22 µSv/MBq
CC(C)(O)c1ncc([S@](N)(=O)=NC(=O)Nc2c3c(cc4c2CCC4)CCC3)s1,item: nervous system disorders,healthy human volunteers,"oral, 300 mg single dose, spray-dried dispersion",,subjects with adverse events,17%
COCC1CN(C2CCN(c3cc(OC)c(Nc4ncc(Br)c(Nc5ccc6c(c5P(C)(C)=O)OCCO6)n4)cc3C)CC2)C1,first-in-human trial,human,"oral, 10 mg once daily",treatment-related leading to dose suspension,adverse events,0%
CCC[C@H]1CC[C@H](c2ccc(NC(=S)NC[C@@H]3[C@@H](O)[C@@H](O)[C@H]4[C@H](O)CCCN43)cc2)CC1,,"NOD-SCID mouse, serum","ip, 30 mg/kg",,ALT,102 ± 70.6 U/L
CN([O-])C(=O)CN1CCN(CC(=O)N(C)[O-])CCN(Cc2ccccn2)CC1.[89Zr+4],,"mouse, bone","intravenous, 4 h",,tracer uptake,5.17 %ID/g
C=CC(=O)Nc1cc(Nc2nccc(-c3cn(C)c4ccccc34)n2)c(OC)cc1N(C)CCNC,,human plasma,"5 h, storage stability, low QC sample",,recovery,98.1%
CC[C@H](C)[C@H](NC(=O)[C@H](CCC(N)=O)NC(=O)[C@@H](NC(=O)[C@@H]1CCCN1[C@@H]1CN(C(=O)[C@H](CCCCN)NC(=O)[C@H](CC(N)=O)NC(=O)[C@@H](NC(=O)[C@@H](NC(=O)[C@H](CCC(N)=O)NC(=O)[C@@H](N)C(C)C)[C@@H](C)CC)[C@@H](C)CC)CC[C@H]1NS(=O)(=O)c1ccc(C)cc1)C(C)C)C(=O)N[C@H](C(=O)N[C@@H](Cc1ccc(O)cc1)C(=O)N[C@@H](CCCCN)C(N)=O)C(C)C,circular dichroism,methanol,"125 µM, 20 °C",,beta-sheet content,63%
Cc1nn(-c2nc3c(F)cc(F)cc3s2)c(O)c1C(c1ccc(C(F)(F)F)cc1)c1c(C)nn(-c2nc3c(F)cc(F)cc3s2)c1O,,"ICR mouse, plasma","intraperitoneal, 10 mg/kg",,AUMC(0-t),203000 h²·ng/mL and 204000 h²·ng/mL and 170000 h²·ng/mL
CC(C)C[C@H](NC(=O)[C@H](CCCN)NC(=O)CNC(=O)[C@@H](NC(=O)[C@H](C)NC(=O)[C@@H]1CSCSC[C@H](NC(=O)CC[C@H](N)C(=O)O)C(=O)N[C@@H](CC(N)=O)C(=O)N[C@@H]([C@@H](C)O)C(=O)N[C@@H](C)C(=O)N[C@@H]([C@@H](C)O)C(=O)N1)[C@@H](C)O)C(=O)N[C@@H](C)C(=O)N[C@@H](CCC(=O)O)C(=O)N[C@@](C)(Cc1ccccc1)C(=O)N[C@@H](CC(C)C)C(=O)N[C@H](C(=O)N[C@@H](CCCNC(=N)N)C(=O)N[C@@H](CO)C(=O)N[C@@H](CO)C(=O)N[C@@H](CC(N)=O)C(=O)N(C)[C@@H](CC(N)=O)C(=O)N[C@@H](Cc1ccccc1)C(=O)NCC(=O)N1CCC[C@H]1C(=O)N[C@@H](CCCCNC(=O)CC[C@H](NC(=O)CC[C@H](NC(=O)CCCCCCCCCCCCCCCCCCC(=O)O)C(=O)O)C(=O)O)C(=O)N[C@@H](CC(C)C)C(=O)N1CCC[C@H]1C(=O)N1CCC[C@H]1C(=O)N[C@H](C(=O)N[C@@H](CCC(=O)O)C(=O)N[C@H](C(=O)NCC(=O)N[C@@H](CO)C(=O)N[C@@H](CC(N)=O)C(=O)N[C@H](C(=O)N[C@@H](Cc1ccc(O)cc1)C(N)=O)[C@@H](C)O)C(C)C)[C@@H](C)O)C(C)C,,"cynomolgus monkey, plasma","subcutaneous, 20 nmol/kg, single dose",,Cmax,135 nM
CCCCN1C(=O)c2cccc3c(NCCCCN4CCOCC4)ccc(c23)C1=O,,DMSO,,,fluorescence quantum yield,0.37
CC(=O)N([O-])CCCCCNC(=O)CCC(=O)N([O-])CCCCCNC(=O)CCC(=O)N([O-])CCCCCN.[89Zr+4],,"mouse, liver",1 h,,tracer uptake,1.14 %ID/g
CC(C(=O)O)n1nc(Cn2cc3cc(OCC[18F])c(Cl)cc3n2)c2ccccc2c1=O (racemic),,"rat, kidney",30 min,,tracer uptake,1.44 %ID/g
N[C@@H](CC(=O)O)C(=O)OC(C(=O)O)c1ccc(Br)cc1[N+](=O)[O-] (mixture of isomers),"1H NMR, dark",50 mM sodium phosphate,"concentration not given, pH 7.0, room temperature, 12.5% DMSO-d6",,"hydrolysis half-life, A isomer",10.2 ± 0.1 h
Cc1cc(NC(=O)C(=O)N2C[C@@H](C)CC[C@@H]2c2ccc3scnc3c2)cnc1N,,"cynomolgus monkey, CSF and plasma","oral, 10 mg/kg",reference: CSF over plasma,"Kp,uu",~0.6
Cc1cc(-c2ccc(C(=O)[C@@H]3CCCC[C@H]3C(=O)Nc3cnn4c3C(=O)NCC4)cc2)[nH]n1,,"human, faeces","oral, 200 mg, 0-24 h",reference: dose,cumulative recovery of radioactivity,5.79%
CN1CCC[C@]1(C)/C=C/S(=O)(=O)NC(=O)Nc1c2c(cc3c1CCC3O)CCC2 (stereo partly drawn),,"human, plasma","oral, 100 mg twice daily of parent drug, day 1, metabolite of dosed drug",,AUC(0-24),1210 µg·h/mL
CN(O)C(=O)CCC(=O)NCCCN(CCCCN(CCCNC(=O)CCC(=O)N(C)O)C(=O)CCC(=O)N(C)O)C(=O)CCC(=O)N(C)O.[89Zr],radio-TLC,aqueous buffer,"5 d, pH 8.5, 37 °C, 89Zr-labelled complex, added: DTPA 100-fold excess",,intact complex,99.9 ± 0.1%
COc1ccc2c(c1)CN(C(=O)CCN1CCC(Cc3ccccc3)CC1)CC[S+]2[O-] (stereo not drawn),,dog plasma,7500 ng/mL,,fu,0.295
CCc1cnc(NC(=O)c2cc(S(=O)(=O)N3CCOCC3)ccc2N(C)C2CCCC2)s1,,"mouse, serum","10 mg/kg, 3 doses",,Phosphorus,9 mg/dL
O=C(O)CCCCC1(N(CC(=O)O)CC(=O)O)CN(CC(=O)O)CCN(CC(=O)O)C1,"pH-potentiometry, item: logK4H",0.15 M NaClO4,25 °C,,protonation constant (log),3.91
CCCC[C@H](OC(C)=O)c1ccccc1C(=O)O,,"beagle dog, both sexes, whole blood","intravenous, 1.5 mg/kg, day 7",,AUC(0-tau),1.37 ± 0.408 µg·h/mL
CCC(C(=O)Nc1ccc(C(N)=O)c(F)c1)n1cc(OC)c(-c2cc(Cl)ccc2-n2cc(C(F)(F)F)nn2)cc1=O (stereo not drawn),,healthy male humans,"25 mg, ASD vs IR, fed",,treatment-emergent adverse events,0%
CCCC[C@H](NC(=O)CNC(=O)CNC(=O)[C@H](CCCCNC(=O)[C@H](CC(=O)O)NC(=O)C(C)c1ccc(CC(C)C)cc1)NC(=O)CN1CCN(CC(=O)O)CCN(CC(=O)O)CCN(CC(=O)O)CC1)C(=O)N[C@H]1CC(=O)NCCCC[C@@H](C(N)=O)NC(=O)[C@H](Cc2c[nH]c3ccccc23)NC(=O)[C@H](CCCNC(=N)N)NC(=O)[C@@H](Cc2ccccc2)NC(=O)[C@H](Cc2c[nH]cn2)NC1=O (stereo partly drawn) [lutetium-177 labelled],,"C57 mice, tumour",2 h,reference: kidney,tumour-to-tissue ratio,2.13
CN(C)C(=O)c1ccnc(N2Cc3cn(Cc4cc(F)cc(F)c4)nc3C2)n1,metabolic stability,"human, liver microsomes",,,half-life,> 16.7 h
CC[C@H](C)[C@@H]1NC(=O)[C@H](Cc2ccc(O)cc2)NC(=O)CCCSC[C@@H](C(=O)N(CC(=O)N[C@@H](CC(C)C)C(=O)NCC(N)=O)Cc2ccc(F)cc2)NC(=O)[C@H](CC(N)=O)NC(=O)[C@H](CCC(N)=O)NC1=O,,"healthy human, plasma","intranasal, 200 µg every 3 h, after second dose",,Cmax,0.119 ng/mL
C#CCCOc1nc(OCC)nc(SC[C@@H](NC(=O)[C@H](N)CCC(=O)O)C(=O)N[C@H](Cc2ccccc2)C(N)=O)n1,,human plasma,"concentration not given, 48 h",,hydrolysis,~15%
COc1ccc2c(c1)O[B-]1(c3ccccc3)OC(=O)C(c3ccccc3)=N[N+]1=C2C (stereo not drawn),UV/vis decay,aqueous buffer,,,hydrolysis activation energy,21.5 kcal/mol
C=CC(=O)Nc1cc(Nc2nccc(-c3c[nH]c4ccccc34)n2)c(OC)cc1N(C)CCN(C)C,storage stability,human plasma,"5 h, -80 °C, low QC level",,recovery,90%
CCOC(=O)C(CC)(CCCSCCOCCOCCNC(=O)OC(C)(C)C)NC(=O)c1ccc(C2CC2)c(Cc2ccc(F)cc2)n1 (racemic),,aqueous buffer with DMSO,,,kinetic solubility,< 0.1 µg/mL
CN1CCC[C@]1(C)/C=C/S(=O)(=O)NC(=O)Nc1c2c(cc3c1CCC3)CC=C2,,"human, plasma","oral, 100 mg twice daily of parent drug, metabolite of dosed drug",reference: day 14 over day 1,AUC(0-24) accumulation ratio,1.4
O=C(Nc1cnccc1-c1ccc([18F])cc1)c1ccnc(NC(=O)C2CC2)c1,,"mice, transgenic, GSK-3β, early-stage, bone","intravenous, dose not given, 120 min",,SUV,1.5
O=C(O)CCCOc1ccc([18F])cc1-c1cc(-c2ccccc2C(F)(F)F)n(-c2ccccc2)n1,,"mouse, small intestine","dose not given, 180 min post-administration",,peak radioactivity,5.5 %ID/organ
CN1CCC[C@]1(C)/C=C/S(=O)(=O)NC(=O)Nc1c2c(cc3c1CC(O)C3)CCC2 (stereo partly drawn),,"human, plasma","oral, 12.5 mg twice daily of parent drug, metabolite of dosed drug",reference: day 14 over day 1,AUC(0-24) accumulation ratio,2.7
Cc1nc(N)nc2c1C(=O)N[C@@H](c1ccc(F)cc1-c1cccc(O[11CH3])n1)C2,ex vivo biodistribution,"mouse, U87 subcutaneous xenograft, tumour","60 min, vehicle pretreatment baseline",,SUV,2 ± 0.1
C=C(NC(=O)c1csc(-c2nc3c(cc2O)-c2nc(cs2)C(=O)NC(C(C)O)C(=O)NC(=C(C)OC)c2nc(cs2)C(=O)NC2c4nc(cs4)C(=O)NC(COC(=O)c4c5c6c(cccc6n4O)COC(=O)C(OC4CC(C)(O)C(N(C)C)C(C)O4)C2OC5)c2nc-3cs2)n1)C(N)=O (stereo not drawn),,"ICR mice, Streptococcus pneumoniae ATCC 49169 infected, immunocompromised, blood","intravenous, 4 mg/kg three times daily",,AUC(0-t),0.226 µM·h

# Excerpt of the above:
Compound,test,system,conditions,how to read,measurement,value
CC[C@H](C)[C@@H]1NC(=O)[C@H](Cc2ccc(O)cc2)NC(=O)CCCSC[C@@H](C(=O)N(CC(=O)N[C@@H](CC(C)C)C(=O)NCC(N)=O)Cc2ccc(F)cc2)NC(=O)[C@H](CC(N)=O)NC(=O)[C@H](CCC(N)=O)NC1=O,,"healthy human, plasma","intranasal, 200 µg every 3 h, after second dose",,Cmax,0.119 ng/mL
C#CCCOc1nc(OCC)nc(SC[C@@H](NC(=O)[C@H](N)CCC(=O)O)C(=O)N[C@H](Cc2ccccc2)C(N)=O)n1,,human plasma,"concentration not given, 48 h",,hydrolysis,~15%
